Experimental data of several laboratories.
Compare with care: the assays were run in different laboratories. ± gives the spread as reported.

| SMILES | test | test system | conditions | how to read | quantity | value |
| --- | --- | --- | --- | --- | --- | --- |
| CC(C)C[C@@H](NC(=O)[C@H](NC(=O)[C@H]1CCCN1)[C@H](C)O)C(=O)N[C@H](Cc1c[nH]cn1)C(=O)N[C@@H](C(=O)N[C@H](Cc1c[nH]cn1)C(=O)N[C@H](CC(N)=O)C(=O)N[C@H](CCCNC(=N)N)C(=O)N[C@H](CCCNC(=N)N)C(=O)N[C@H](CCCNC(=N)N)C(=O)N[C@H](CCCNC(=N)N)C(=O)N[C@H](CCCNC(=N)N)C(N)=O)[C@H](C)O | – | healthy human, plasma | 2 320 mg daily | baseline: AUC(0-inf) day 28 over AUC(0-24h) | accumulation ratio | 3.4 |
| CC(C)[C@H](N)C(=O)N[C@@H](Cc1ccc(O)cc1)C(=O)N[C@@H](Cc1ccc(O)cc1)C(=O)N[C@@H](CCCNC(=N)N)C(=O)O | – | Lantus formulation | pH 4 | – | solubility | ≥ 1000 µM |
| CN(C(=O)Cc1cccc(Cl)c1)[C@@H]1CCCC[C@H]1N1CCCC1 | – | human liver microsomes | 0.5 µM, with: NADPH | – | intrinsic clearance | 0.6 mL/min/g |
| CN1CCCC(CSc2nc(N)c3c4c(sc3n2)CC(c2ccccc2)CC4)C1 (stereo not drawn) | – | mouse liver microsomes | 30 min | – | metabolized compound | 75 ± 3% |
| CC(=O)N[C@H]1CC(=O)NCCCC[C@@H](C(N)=O)NC(=O)[C@@H](Cc2ccccc2)NC(=O)[C@@H]2CCCN2C(=O)[C@H](CC(=O)O)NC(=O)[C@H](CC(=O)O)NC(=O)[C@H](Cc2ccc(OP(=O)(O)O)cc2)NC(=O)[C@H](CCC(=O)O)NC1=O | PAMPA | – | 8 h | – | log Pe | -5.24 |
| CN(C(=O)Cc1cccc(F)c1)[C@@H]1CCCC[C@H]1N1CCCC1 | – | mouse liver microsomes | 0.5 µM, with: NADPH | – | intrinsic clearance | 9.9 mL/min/g |
| NCCNCCSc1ccccc1 | – | n-octanol/phosphate buffer | 50 µg/mL, pH 7.4 | – | partition coefficient | 0.26 ± 0.03 |
| CN(C(=O)Cc1c(Cl)cccc1Cl)[C@@H]1CCCC[C@H]1N1CCCC1 | – | mouse liver microsomes | 0.5 µM, with: NADPH | – | intrinsic clearance | 11 mL/min/g |
| CC(C)(C)N1CCC(NC(=O)c2ccc(C(F)(F)F)cc2Cl)CC1 | – | human plasma | 6 h | – | remaining compound | 98.2% |

Excerpt of the above:
| SMILES | test | test system | conditions | how to read | quantity | value |
| --- | --- | --- | --- | --- | --- | --- |
| CC(C)[C@H](N)C(=O)N[C@@H](Cc1ccc(O)cc1)C(=O)N[C@@H](Cc1ccc(O)cc1)C(=O)N[C@@H](CCCNC(=N)N)C(=O)O | – | Lantus formulation | pH 4 | – | solubility | ≥ 1000 µM |
